Assay results from different studies.
Every numbered part comes from another study and shows a few of its results, in no order.
Sequence of UniProt Q9UK32 (whole entry, looked up): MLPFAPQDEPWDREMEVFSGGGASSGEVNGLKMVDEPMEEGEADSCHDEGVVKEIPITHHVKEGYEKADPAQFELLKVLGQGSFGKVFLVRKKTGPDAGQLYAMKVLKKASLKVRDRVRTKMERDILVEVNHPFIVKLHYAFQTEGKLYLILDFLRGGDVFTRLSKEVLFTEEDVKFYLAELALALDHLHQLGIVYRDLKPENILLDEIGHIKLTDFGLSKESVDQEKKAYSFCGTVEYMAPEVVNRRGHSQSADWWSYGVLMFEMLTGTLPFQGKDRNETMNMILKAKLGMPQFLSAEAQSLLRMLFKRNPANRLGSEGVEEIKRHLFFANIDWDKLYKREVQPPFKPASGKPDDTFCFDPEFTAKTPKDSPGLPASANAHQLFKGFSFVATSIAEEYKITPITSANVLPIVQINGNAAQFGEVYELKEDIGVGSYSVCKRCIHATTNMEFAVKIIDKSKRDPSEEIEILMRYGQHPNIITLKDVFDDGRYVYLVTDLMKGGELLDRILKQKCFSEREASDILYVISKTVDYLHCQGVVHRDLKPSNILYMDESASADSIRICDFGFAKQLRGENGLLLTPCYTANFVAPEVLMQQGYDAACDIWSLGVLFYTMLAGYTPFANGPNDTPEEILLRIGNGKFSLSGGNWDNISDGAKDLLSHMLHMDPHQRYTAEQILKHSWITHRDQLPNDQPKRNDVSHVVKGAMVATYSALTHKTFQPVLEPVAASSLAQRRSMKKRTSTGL

Set 1 — method: aptamer microarray, sandwich; form: DNA with 2'F-ANA; matrix: in vitro; concentration: 200 nM; together with: Cy3 exosite-II aptamer, 400 nM; reading: higher = stronger binding; sequence: GGTTGGTGTGGTTGG
Target: Prothrombin, mature alpha-thrombin (F2, Homo sapiens, UniProt P00734)
Setting: whole 15-mer aptamer, many near background
Modification	mean fluorescence intensity [a.u.]
2'F-ANA at 3 4 5 6 9 11 14	50
2'F-ANA at 4 6 10 12 14	59
2'F-ANA at 1 2 5 6 7 8 10 12 14 15	114
2'F-ANA at 3 5 10 15	62.6
2'F-ANA at 4 6 7 8 11 13 15	214
2'F-ANA at 4 5 6 7 13	54.3
2'F-ANA at 2 4 5 6 10 12 15	58
2'F-ANA at 1 4 5 6 7 8 14 15	54.9

Set 2 — method: EMSA with sequencing; form: double-stranded DNA, one strand shown; matrix: in vitro; concentration: 10 and 20 nM; baseline: negative control set to 0; reading: higher = stronger binding
Target: Hepatocyte nuclear factor 3-alpha (Foxa1, Mus musculus, UniProt P35582, residues 1-468, full length assumed)
Setting: whole designed probe, mean of two concentrations, ends assumed
Shared flanks, not repeated: GTGAGCGGTGCCCATTGATGGGGAAC … TTTCACTGGGATCGTGGGGAC
Construct (chain): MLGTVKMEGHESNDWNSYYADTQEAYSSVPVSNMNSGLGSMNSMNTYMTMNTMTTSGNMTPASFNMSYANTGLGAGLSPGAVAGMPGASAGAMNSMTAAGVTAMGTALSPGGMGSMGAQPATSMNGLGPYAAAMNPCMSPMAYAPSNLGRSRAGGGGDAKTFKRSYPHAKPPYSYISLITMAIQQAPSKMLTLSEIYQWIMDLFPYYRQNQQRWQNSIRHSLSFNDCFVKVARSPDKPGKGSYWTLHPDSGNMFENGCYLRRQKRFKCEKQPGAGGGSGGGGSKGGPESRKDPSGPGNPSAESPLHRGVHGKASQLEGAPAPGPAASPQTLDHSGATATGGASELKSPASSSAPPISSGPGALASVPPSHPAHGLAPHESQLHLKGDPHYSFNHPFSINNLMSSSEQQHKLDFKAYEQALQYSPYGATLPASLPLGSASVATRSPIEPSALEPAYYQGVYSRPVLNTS
Sequence	normalised bound fraction
ATATGACAAAAGGCATGCATGTGACTTTATTTTTTCAATGGCTACTTTTCTTCTTAAATCAGGCTCCCTGATTTTAACTAAAAAATAAATAAGTAATCTAGAAAACACTGGGTTACTCTCAAAGAGATCACATTTTTAAAAACTCAAATGATTTCCTACAGGCAGTCTGTTTTGCAGTGTATTTTTTTTTCTT	0.0782 ratio
GTGTGCTAGCCTGTGAGTTTTTCTCTCCAACTAGCCTGGGTACTCAGGAAAGTGAGATCAACTTGGGTGTAGCTTCTGGGTGGCCTGACCTGTGCAAATAGGGGAGACAGTTGACATACAGATGAAAGGGGAGATGGGAAGCCATACAGAGGAAGGAGAAGATCAGGAACCAGAGATAAGATAATTCTGTAAA	0.228 ratio
CCTGCACTCCTGCCGGTGGCCTGACCCCTTCTGCCCTGTGCCAATTGTCTGCACCCTCCATCCGGGGTTTGCCAGTCAGCCGGCCCAGAGCTATGTAAACAACAAGTCTAGATGTGTCCCTATTTGGGCAACTCTGCAAGGGAAAAATAAGAAGTTGTTAGAATGCTAAGAATGCAGAGCATCCGGAGATTCC	0.458 ratio
TTATATCTAGGCTACAGCATGGAGATAATTGATACAAATATTTTCTTATCATCATGGTCCTCAAAGAAAGTACCAGGCCTAATTTGCAATCTAAGTAAACATAAAAAGAAAGTTGTTTAGTAAAGCAATTTATTTCATAAGTCACTATTTCTTTCACCATAGCCATATACTATCTTATGCTTAGTAATGAATT	0.446 ratio
ATCTTCCCCCTCTTCCTTGCCCCACCAGCTCACCTACGGGGGTTATTTGCACAAAGGAAAATAAATAAAGCCGGCATTCGTTAACCCTCTTCTGGCGCAAACTGCTGTTTGCTCTGCATCTAACATGGTCCTTACGCGACGCCAGGCTCCGGGAGAGCAAAGCACCGTGTCAGGCGCATGATCCGGGGTGGCC	0.381 ratio

Set 3 — method: RNA Bind-n-Seq; form: RNA; matrix: in vitro; concentration: not given; baseline: input RNA pool; reading: higher = stronger binding
Target: RING finger protein unkempt homolog, zinc fingers 1-6, GST-SBP tag (UNK, Homo sapiens, UniProt Q9C0B0, residues 30-357)
Sequence of UniProt Q9C0B0 (30-357, looked up): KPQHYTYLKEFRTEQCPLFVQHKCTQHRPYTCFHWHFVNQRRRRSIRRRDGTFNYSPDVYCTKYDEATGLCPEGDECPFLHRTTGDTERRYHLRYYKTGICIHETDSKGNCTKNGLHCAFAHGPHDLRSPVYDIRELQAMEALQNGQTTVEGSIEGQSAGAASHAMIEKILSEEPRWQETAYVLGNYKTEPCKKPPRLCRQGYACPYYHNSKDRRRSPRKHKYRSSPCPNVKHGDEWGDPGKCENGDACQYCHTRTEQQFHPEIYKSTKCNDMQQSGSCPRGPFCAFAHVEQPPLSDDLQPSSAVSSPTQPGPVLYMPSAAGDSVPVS
Setting: RNA with constant flanks, human-mouse chimeric sites, ends assumed
Shared flanks, not repeated: GGGAGUUCUACAGUCCGACGAUC … CAACAGAGGAUUGAGCAUCA
Sequence	bound/input enrichment
GGUGGGGUGGUCAUUGCCGUUUGAGCUGCUGAUUUUCAUGAGUCGCCUUCAAAACUCUCGCAUAGGGUUGACAAUGUGGGGGGGUGGGAAAUCUAGCUUAUUCUUUUAUUUUCAAGUCCA	8.62 ratio
UACUACUAUGAUGGUGAUAUUGGCAAUUAUUAUUAUGGCCAGGGUCAUCCCAUGAAGCCUCAUAGAAUCCGGAUGACCCAUAACUUGCUGCUAAAUUAUGGUUUAUACAGAAAAAUGGAA	0.22 ratio
UCUUAACUUAUUCAUUUAACUUAUUUUUAGCACUUAGUAAAUAUUGUUAGUCUUAGACAAUAGCUCACAUUUUUUGAGAAGCAUGCCCUCCCUGUCCAUUUGUCUUAUAACAUGACCCAG	438 ratio
ACACAAUAUGAGACCAACAGCAUGGACUUCAAAGUUGGGGCGGAUGGGACAGUCUUCGCCACCCGGGAGCUGCAGGUCCCCUCCGAGCAGGUGGCGUUCACGGUGACUGCGCGGGAAAGC	0.218 ratio
CUGUUUUACAGCCACACAAUUCUUGGCAUGUAUUAAGGAAAAAAAAAAUCCCUGUUGAAGUAGUUUUUCCACCUAUCAGCACUGAGUAAAUGCCAUAACUCCGCGGAAAUGGUCUAAAUA	0.228 ratio
UUGAAAACUGAUUCAAGUAAGUUUGAGUAUCACAAUGUUAGCUUUCUAAUUCCAUAAAAGUACUUGGUACAGUUUCUUUAUAAUCUGACAUCACCCCCCGUUUAUAAGUAAAGAGCAACU	1.5 ratio
UCCCAAAUCCAGCAGCUCCUUGAAAUAAAUUGUUUGUCACUCCACACACAGGGAAGGCGAUAACAUUGUACAUUGGUUUACAUUUUUUCCCCCUGUGGAUUUUUCUAGAGGUCAUAGUGC	0.529 ratio
CUUAAUGAUAUUUUGAGUGAAUAAAUGUAAAACCAUGGUCUGCUUUUGGUACAACACGCAUUAAUAAAAGGUUAAGUUUUGUUUUCCACUGAAGUACUAUUUAACAUCUCAGAAAAAAAC	0.128 ratio

Other studies, line by line
Compound	target	test	setting	measurement	result
C[C@@]1(Cc2ccc(C#N)cc2)C(=O)N(c2cc(Cl)cc(Cl)c2)c2ncc(C(=O)NC3(c4nc(C5CCC5)no4)CC3)n21	Ribosomal protein S6 kinase alpha-6, N-terminal kinase domain (RPS6KA6, Homo sapiens, UniProt Q9UK32)	cell-free assay, competition with immobilised ligand	1 µM	remaining binding	100%

A few entries again (set 1):
Modification	mean fluorescence intensity [a.u.]
2'F-ANA at 4 5 6 7 13	54.3
2'F-ANA at 2 4 5 6 10 12 15	58
